Results pooled from the literature.
Each line is one published result; not all experiments were run side by side. Numbers after ± are the reported error.
B1: SERPINF2 mature, citrullinated arginines (Homo sapiens, UniProt P08697); citrullinated arginines; chain NQEQVSPLTLLKLGNQEPGGQTALKSPPGVCSRDPTPEQTHRLARAMMAFTADLFSLVAQTSTCPNLILSPLSVALALSHLALGAQNHTLQRLQQVLHAGSGPCLPHLLSRLCQDLGPGAFRLAARMYLQKGFPIKEDFLEQSEQLFGAKPVSLTGKQEDDLANINQWVKEATEGKIQEFLSGLPEDTVLLLLNAIHFQGFWRNKFDPSLTQRDSFHLDEQFTVPVEMMQARTYPLRWFLLEQPEIQVAHFPFKNNMSFVVLVPTHFEWNVSQVLANLSWDTLHPPLVWERPTKVRLPKLYLKHQMDLVATLSQLGLQELFQAPDLRGISEQSLVVSGVQHQSTLELSEVGVEAAAATSIAMSRMSLSSFSVNRPFLFFIFEDTTGLPLFVGSVRNPNPSAPRELKEQQDSPGNKDFLQSLKGFPRGDKLFGPDLKLVPPMEEDYPQFGSPK
B2: RNF2 (Homo sapiens, UniProt Q99496); sequence looked up; chain MSQAVQTNGTQPLSKTWELSLYELQRTPQEAITDGLEIVVSPRSLHSELMCPICLDMLKNTMTTKECLHRFCADCIITALRSGNKECPTCRKKLVSKRSLRPDPNFDALISKIYPSRDEYEAHQERVLARINKHNNQQALSHSIEEGLKIQAMNRLQRGKKQQIENGSGAEDNGDSSHCSNASTHSNQEAGPSNKRTKTSDDSGLELDNNNAAMAIDPVMDGASEIELVFRPHPTLMEKDDSAQTRYIKTSGNATVDHLSKYLAVRLALEELRSKGESNQMNLDTASEKQYTIYIATASGQFTVLNGSFSLELVSEKYWKVNKPMELYYAPTKEHK
B3: IGFL1 24-110 (Homo sapiens, UniProt Q6UW32); chain GAPVAPMTPYLMLCQPHKRCGDKFYDPLQHCCYDDAVVPLARTQTCGNCTFRVCFEQCCPWTFMVKLINQNCDSARTSDDRLCRSVS
B4: UGT1A9 (Homo sapiens, UniProt O60656); chain GKLLVVPMDGSHWFTMRSVVEKLILRGHEVVVVMPEVSWQLGRSLNCTVKTYSTSYTLEDLDREFKAFAHAQWKAQVRSIYSLLMGSYNDIFDLFFSNCRSLFKDKKLVEYLKESSFDAVFLDPFDNCGLIVAKYFSLPSVVFARGILCHYLEEGAQCPAPLSYVPRILLGFSDAMTFKERVRNHIMHLEEHLLCHRFFKNALEIASEILQTPVTEYDLYSHTSIWLLRTDFVLDYPKPVMPNMIFIGGINCHQGKPLPMEFEAYINASGEHGIVVFSLGSMVSEIPEKKAMAIADALGKIPQTVLWRYTGTRPSNLANNTILVKWLPQNDLLGHPMTRAFITHAGSHGVYESICNGVPMVMMPLFGDQMDNAKRMETKGAGVTLNVLEMTSEDLENALKAVINDKSYKENIMRLSSLHKDRPVEPLDLAVFWVEFVMRHKGAPHLRPAAHDLTWYQYHSLDVIGFLLAVVLTVAFITFKCCAYGYRKCLGKKGRVKKAHKSKTH
Sequence of UniProt P29375 (whole entry, looked up): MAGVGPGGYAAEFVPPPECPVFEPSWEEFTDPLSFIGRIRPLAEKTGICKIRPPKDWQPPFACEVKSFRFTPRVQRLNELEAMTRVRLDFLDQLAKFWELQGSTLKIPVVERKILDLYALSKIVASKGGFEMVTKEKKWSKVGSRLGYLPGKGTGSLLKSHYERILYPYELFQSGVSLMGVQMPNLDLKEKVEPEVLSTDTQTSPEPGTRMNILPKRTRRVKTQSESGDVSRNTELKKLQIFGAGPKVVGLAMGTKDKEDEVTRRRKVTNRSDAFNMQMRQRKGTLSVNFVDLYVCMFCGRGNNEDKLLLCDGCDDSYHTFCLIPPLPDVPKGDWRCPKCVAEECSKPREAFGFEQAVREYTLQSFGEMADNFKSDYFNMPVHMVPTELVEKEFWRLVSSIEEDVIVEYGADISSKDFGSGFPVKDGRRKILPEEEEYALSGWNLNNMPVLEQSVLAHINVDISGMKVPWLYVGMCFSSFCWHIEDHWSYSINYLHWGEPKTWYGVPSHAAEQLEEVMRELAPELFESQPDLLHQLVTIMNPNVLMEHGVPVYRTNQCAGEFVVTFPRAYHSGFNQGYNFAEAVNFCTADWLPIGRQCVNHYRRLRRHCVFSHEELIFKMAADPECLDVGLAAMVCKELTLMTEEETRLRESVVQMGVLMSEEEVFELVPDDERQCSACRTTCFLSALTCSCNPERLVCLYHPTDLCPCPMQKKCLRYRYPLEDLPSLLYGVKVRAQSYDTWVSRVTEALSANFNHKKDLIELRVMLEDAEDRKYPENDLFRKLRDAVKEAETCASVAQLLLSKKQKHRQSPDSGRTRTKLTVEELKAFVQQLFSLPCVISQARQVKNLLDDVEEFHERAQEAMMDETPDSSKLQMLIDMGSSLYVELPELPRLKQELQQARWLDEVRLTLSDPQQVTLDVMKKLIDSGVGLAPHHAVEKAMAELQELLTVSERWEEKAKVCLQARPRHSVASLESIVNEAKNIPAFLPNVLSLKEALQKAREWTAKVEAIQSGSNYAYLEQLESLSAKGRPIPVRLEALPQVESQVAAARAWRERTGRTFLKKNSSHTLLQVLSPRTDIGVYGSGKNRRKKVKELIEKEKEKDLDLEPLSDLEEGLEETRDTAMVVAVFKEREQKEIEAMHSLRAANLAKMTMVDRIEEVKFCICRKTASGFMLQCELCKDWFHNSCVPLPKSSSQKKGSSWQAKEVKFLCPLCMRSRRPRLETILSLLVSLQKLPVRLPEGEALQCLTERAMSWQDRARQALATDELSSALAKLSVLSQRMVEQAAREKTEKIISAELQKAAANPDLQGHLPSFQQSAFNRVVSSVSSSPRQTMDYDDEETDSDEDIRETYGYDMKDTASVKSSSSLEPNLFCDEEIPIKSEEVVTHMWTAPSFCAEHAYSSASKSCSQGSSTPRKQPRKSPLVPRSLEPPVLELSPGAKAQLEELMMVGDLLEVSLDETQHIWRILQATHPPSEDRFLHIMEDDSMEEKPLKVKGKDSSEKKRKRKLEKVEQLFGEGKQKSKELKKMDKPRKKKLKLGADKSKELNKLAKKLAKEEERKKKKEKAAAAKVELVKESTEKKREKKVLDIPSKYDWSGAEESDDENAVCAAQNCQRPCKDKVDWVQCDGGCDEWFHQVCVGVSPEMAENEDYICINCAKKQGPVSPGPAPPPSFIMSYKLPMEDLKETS
Sequence of UniProt Q9H665 (whole entry, looked up): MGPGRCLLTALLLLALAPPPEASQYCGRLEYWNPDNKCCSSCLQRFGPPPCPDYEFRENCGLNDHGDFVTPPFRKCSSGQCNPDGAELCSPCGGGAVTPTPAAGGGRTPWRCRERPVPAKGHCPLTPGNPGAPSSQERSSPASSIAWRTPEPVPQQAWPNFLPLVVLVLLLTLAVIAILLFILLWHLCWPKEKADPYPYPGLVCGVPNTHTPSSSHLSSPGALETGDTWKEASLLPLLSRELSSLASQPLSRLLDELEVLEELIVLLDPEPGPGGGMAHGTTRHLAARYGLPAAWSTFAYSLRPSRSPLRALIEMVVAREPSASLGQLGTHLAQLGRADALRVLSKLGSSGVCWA
Sequence of UniProt P01024 (whole entry, looked up): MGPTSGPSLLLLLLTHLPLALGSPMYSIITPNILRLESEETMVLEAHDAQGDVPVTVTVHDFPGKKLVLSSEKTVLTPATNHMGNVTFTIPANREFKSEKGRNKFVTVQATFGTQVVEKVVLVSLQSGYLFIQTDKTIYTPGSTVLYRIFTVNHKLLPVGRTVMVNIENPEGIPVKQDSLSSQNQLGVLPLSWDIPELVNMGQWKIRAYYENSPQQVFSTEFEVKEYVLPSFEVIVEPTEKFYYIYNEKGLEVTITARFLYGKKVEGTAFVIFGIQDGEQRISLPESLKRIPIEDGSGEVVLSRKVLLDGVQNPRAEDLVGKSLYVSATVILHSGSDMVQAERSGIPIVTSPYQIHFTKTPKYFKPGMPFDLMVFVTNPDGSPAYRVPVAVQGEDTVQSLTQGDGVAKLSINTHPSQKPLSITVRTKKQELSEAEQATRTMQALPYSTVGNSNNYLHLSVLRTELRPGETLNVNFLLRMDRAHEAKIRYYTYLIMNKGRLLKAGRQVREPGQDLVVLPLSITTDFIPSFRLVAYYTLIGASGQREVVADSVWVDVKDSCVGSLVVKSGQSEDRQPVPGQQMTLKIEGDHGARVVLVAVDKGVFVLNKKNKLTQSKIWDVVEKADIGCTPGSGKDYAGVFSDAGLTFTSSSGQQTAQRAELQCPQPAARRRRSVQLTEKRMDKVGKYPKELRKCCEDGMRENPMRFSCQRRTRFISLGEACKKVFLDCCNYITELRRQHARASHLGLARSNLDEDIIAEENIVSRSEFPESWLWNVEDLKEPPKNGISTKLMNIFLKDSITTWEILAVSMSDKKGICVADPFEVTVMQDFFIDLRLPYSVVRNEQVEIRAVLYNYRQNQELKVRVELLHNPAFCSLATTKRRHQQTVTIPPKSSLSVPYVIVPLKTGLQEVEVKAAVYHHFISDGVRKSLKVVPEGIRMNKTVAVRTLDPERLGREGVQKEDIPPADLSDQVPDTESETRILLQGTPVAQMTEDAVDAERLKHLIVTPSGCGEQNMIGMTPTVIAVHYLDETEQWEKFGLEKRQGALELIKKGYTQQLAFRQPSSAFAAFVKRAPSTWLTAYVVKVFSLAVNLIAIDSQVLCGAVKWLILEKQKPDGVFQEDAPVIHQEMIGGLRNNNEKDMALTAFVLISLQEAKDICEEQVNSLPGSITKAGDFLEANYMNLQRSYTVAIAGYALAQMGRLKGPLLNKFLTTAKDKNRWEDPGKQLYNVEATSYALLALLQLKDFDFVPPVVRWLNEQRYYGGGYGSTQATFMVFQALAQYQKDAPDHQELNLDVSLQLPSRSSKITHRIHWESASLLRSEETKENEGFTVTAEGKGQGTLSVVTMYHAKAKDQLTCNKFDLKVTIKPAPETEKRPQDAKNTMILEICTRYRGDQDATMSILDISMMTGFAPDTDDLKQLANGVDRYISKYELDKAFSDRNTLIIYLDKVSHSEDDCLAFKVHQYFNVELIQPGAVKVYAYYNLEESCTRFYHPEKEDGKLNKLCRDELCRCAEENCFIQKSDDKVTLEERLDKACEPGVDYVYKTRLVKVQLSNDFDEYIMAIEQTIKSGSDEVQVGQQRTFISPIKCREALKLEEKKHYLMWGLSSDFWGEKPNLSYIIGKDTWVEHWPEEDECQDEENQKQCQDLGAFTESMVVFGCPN
Sequence of UniProt Q16581 (whole entry, looked up): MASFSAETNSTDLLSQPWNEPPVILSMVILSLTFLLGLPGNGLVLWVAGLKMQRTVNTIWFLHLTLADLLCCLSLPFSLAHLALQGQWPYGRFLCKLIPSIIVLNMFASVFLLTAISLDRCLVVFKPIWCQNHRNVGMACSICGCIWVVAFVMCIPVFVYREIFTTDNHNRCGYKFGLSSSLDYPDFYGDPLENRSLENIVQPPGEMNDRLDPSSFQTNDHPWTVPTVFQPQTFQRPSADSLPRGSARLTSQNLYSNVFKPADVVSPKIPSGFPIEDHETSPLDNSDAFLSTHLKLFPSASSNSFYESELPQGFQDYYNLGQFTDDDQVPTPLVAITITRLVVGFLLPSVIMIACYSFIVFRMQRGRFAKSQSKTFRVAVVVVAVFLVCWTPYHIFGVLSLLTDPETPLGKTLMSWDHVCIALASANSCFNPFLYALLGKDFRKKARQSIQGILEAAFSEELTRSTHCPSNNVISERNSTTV
Sequence of UniProt P00167 (whole entry, unmodified, looked up): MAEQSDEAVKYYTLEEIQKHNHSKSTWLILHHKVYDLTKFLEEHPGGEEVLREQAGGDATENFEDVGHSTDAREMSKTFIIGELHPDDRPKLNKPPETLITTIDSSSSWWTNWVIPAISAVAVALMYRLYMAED
Sequence of UniProt Q91ZD4 (whole entry, looked up): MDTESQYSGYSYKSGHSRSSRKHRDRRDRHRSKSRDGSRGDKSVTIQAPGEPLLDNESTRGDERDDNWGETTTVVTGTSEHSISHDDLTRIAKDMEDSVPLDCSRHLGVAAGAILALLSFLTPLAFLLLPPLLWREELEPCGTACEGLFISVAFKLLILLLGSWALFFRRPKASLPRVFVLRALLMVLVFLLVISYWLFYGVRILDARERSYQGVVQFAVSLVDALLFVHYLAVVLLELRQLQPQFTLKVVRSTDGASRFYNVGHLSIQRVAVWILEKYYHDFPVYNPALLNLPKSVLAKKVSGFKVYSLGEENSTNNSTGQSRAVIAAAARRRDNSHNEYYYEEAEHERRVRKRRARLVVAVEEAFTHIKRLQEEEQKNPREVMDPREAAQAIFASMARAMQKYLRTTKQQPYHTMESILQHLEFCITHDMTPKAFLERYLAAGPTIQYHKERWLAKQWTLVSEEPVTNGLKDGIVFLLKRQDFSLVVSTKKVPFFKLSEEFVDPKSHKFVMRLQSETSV

Substance	target or system	test	test system	conditions	scale	endpoint	result
B1	PLG plasmin (Homo sapiens, UniProt P00747)	cleavage of citrullinated antiplasmin	–	–	–	kcat/Km	2.5e+07 M⁻¹ s⁻¹
B2 (RNF2)	CBX2 (UniProt Q14781)	FRET	Cbx2−/− ES cells	in cells, mitotic chromosomes	baseline: before photobleaching, higher = more FRET	donor fluorescence increase	1.5 ± 0.1 fold
ADAR p110 isoform E912A (Homo sapiens)	DICER1 (Homo sapiens, UniProt Q9UPY3)	in vitro cleavage	–	–	baseline: Dicer alone, higher = more cleavage	pre-siRNA cleavage	6 fold
CYB5A holo (Homo sapiens, UniProt P00167)	CYP3A4 N-terminally truncated (Homo sapiens, UniProt P08684)	testosterone 6β-hydroxylation	–	together with: CPR	baseline: without b5, higher = greater b5 stimulation	catalytic efficiency ratio	2.7
C3a (Homo sapiens, UniProt P01024)	C3AR1 (Homo sapiens, UniProt Q16581)	PWV shift, agonist, label-free photonic crystal biosensor	RBL-2H3, DMEM + 10% FBS	–	–	EC50	1.8 nM
liraglutide	GCGR (Homo sapiens, UniProt P47871)	reporter gene, agonist, CRE luciferase reporter	HEK293	–	–	EC50	> 1000 nM
B3 (IGFL1 24-110)	IGFLR1 23-159 (Homo sapiens, UniProt Q9H665)	SPR	–	pH 7.4, 25 °C, NaCl 0.15 M	–	koff	0.000128 s⁻¹
Prickle2 (Mus musculus, UniProt Q80Y24)	Vangl2 (Mus musculus, UniProt Q91ZD4)	co-IP	HEK293T	1.0 µg	baseline: control, higher = more E-cadherin	E-cadherin coprecipitated	0.28 a.u.
cytochrome c5 (Shewanella oneidensis)	CcP, two covalent hemes (Shewanella oneidensis)	steady-state kinetics	–	oxidized, tag-free, together with: electron donor 4 µM	–	peroxide turnover rate k1	7 s⁻¹
B4 (UGT1A9)	CC/C(=C(\c1ccc(O)cc1)c1ccc(OCCNC)cc1)c1ccccc1	steady-state kinetics	–	pH 7.4, 37 °C	–	Km	316 µM
MQRINKNVVLALLTLTSSAFLLFQLYYYKHYLSARN (FKTN residues 1-36; rhodamine B labelled)	Fktn residues 1-36, fluorescein label	FRET	peptide, liposomes	–	–	molecule per partner	2
ARTKFTARKS (Histone H3.1 2-11 Q5F (Homo sapiens, UniProt P68431); sequence looked up)	KDM5A 287-347 (Homo sapiens, UniProt P29375)	competition with labeled peptide, fluorescence polarisation	peptide	together with: H3 peptide	–	Ki	980 nM
ferredoxin 1 (Magnetococcus marinus)	2-oxoglutarate:ferredoxin oxidoreductase αβ heterodimer (Magnetococcus marinus)	2-oxoglutarate formation	–	electron donor, together with: ferredoxin	–	CO2 reduction activity	27.2 min⁻¹
